Measurements pooled from the literature.
Every numbered part comes from another study and shows a few of its results, in no order. Substitutions count along the parent as printed.

Block 1 — method: protein binding microarray; form: double-stranded DNA, one strand shown; matrix: in vitro; concentration: not given; relative to: not given; reading: higher = stronger binding
Target: Histone acetyltransferase KAT6A, both winged helices, GST fusion (KAT6A, Homo sapiens, UniProt Q92794, residues 1-181)
Setting: 8-mer, flanks averaged, mean of 2 arrays, mostly near background
Residues (chain): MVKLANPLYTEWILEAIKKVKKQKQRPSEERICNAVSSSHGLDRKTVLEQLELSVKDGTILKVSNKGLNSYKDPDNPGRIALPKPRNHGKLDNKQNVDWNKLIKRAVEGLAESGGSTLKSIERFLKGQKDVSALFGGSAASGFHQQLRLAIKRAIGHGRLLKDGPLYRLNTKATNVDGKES
Strand	E-score
CGAACAAG	0.0985
AATTCACC	-0.107
TACCTCGA	-0.174
GCGGTGCA	0.123
ATAGCGGC	0.272
CTAGACAA	-0.178
AATTTGCG	0.0403
TCTTTGAA	-0.115
GTAGGGTA	-0.159
AGCTTCAT	0.115
CGTCAAGA	-0.0465
ACTGACAA	0.0138
GCGGTCTA	0.234
CGGCAGTC	0.199
CTGAGCCA	-0.046
CATGGATC	-0.0379
ACCTATAC	-0.029
AGTCTTCG	-0.0737
TAATGGCA	0.00812
AGAGGGAA	-0.239
ACCTTGGG	-0.136
ACTTGTAC	-0.0561
AATTTACC	0.00436
CGTGATTC	0.1

Block 2 — method: protein-binding microarray; form: double-stranded DNA, one strand shown; matrix: in vitro; concentration: not given; reading: higher = stronger binding
Target: Protein max, full length (MAX, Homo sapiens, UniProt P61244-2, residues 1-151)
Setting: k-mer, scored over probes, only values ≥0.25
Strand	E-score
ATGCGGGC	0.277
GGGCACAC	0.285
ACGTGAGC	0.363
ATGCTGGC	0.295
CGTGTACA	0.323
CCATGCTC	0.403
GATCACGC	0.411
CGTGGCAG	0.374
AACATGCC	0.34
ACGCGCGT	0.369
GCATGTTA	0.401
AACGTGGC	0.432
GCGCACCC	0.254
ACGTTAGG	0.291
GCACACCA	0.252
ACGTTCTA	0.25
AAGCGTGT	0.384
CGTGCTTC	0.389
CATGCGAC	0.424

Block 3 — method: RNAcompete; form: RNA; matrix: in vitro; concentration: 20 nM; setting: 7-mer, probes averaged, single round; relative to: mean of 7-mers; reading: higher = stronger binding
Target: PABPC1L2, full length, GST fusion (mouse, UniProt A0ABA7IW68)
Construct (chain): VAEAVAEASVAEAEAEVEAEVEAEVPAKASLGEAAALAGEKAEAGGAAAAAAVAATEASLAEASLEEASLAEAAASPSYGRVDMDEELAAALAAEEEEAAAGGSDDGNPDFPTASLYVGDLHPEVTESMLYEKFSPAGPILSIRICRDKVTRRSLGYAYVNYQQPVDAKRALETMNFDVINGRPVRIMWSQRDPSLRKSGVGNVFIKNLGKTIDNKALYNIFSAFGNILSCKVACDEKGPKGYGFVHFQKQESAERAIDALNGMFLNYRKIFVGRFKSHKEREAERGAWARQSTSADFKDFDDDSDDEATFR
Strand	7-mer Z-score
AAAUUAC	1.35
UCAAUCG	-0.19
GUAUGAA	0.0932
GAGUGCC	-0.217
CGCUCUG	-0.338
AACCUAA	0.126
AUUUCCC	-0.389
UGGCGGU	0.0334
GUCAGCU	-0.206
AAUUAUC	0.075
GCCCGUA	-0.153
CGGAUAA	0.427
UUAACAA	0.066
CAAUCUU	-0.148
UAAGCUU	-0.278
UCGUUUU	-0.574
GCCAGUG	-0.24

Block 4 — target: CCNB3, cyclin fold, Cln2 fusion (human); method: yeast growth competition, sequencing; matrix: yeast; setting: weak parent motif; relative to: not given; reading: higher = stronger binding
Starting sequence: SLBP docking peptide (human); ARYKRKLLINDFG
Substitution	normalised enrichment score
ARYKRKLLINDFA [G13A]	-0.125
ARYKRKLLINKFG [D11K]	0.155
ARYKRKLLINDWG [F12W]	0.041
PRYKRKLLINDFG [A1P]	0.33
ARYKRKLLINDFV [G13V]	0.483
AREKRKLLINDFG [Y3E]	0.528
SRYKRKLLINDFG [A1S]	0.346
ARYKRKLLINSFG [D11S]	-0.0356
ARYNRKLLINDFG [K4N]	0.501
ARKKRKLLINDFG [Y3K]	-0.305
ATYKRKLLINDFG [R2T]	0.667
ARQKRKLLINDFG [Y3Q]	0.146
ARYKQKLLINDFG [R5Q]	-0.225
ARYKRKLLINDTG [F12T]	-0.503
ARYKRKLLNNDFG [I9N]	0.198
WRYKRKLLINDFG [A1W]	0.126
ARYKRKLLANDFG [I9A]	-0.311
ARYKRKLLINDFL [G13L]	-0.499
ARYKAKALINDFG [R5A L7A]	0.164
ARYKRELLINDFG [K6E]	0.438
ARYKRKLLIVDFG [N10V]	-0.0557
ARYKRKLLINDFF [G13F]	0.299
ARYHRKLLINDFG [K4H]	0.348
ARYKRKLLILDFG [N10L]	0.683
AFYKRKLLINDFG [R2F]	-0.305

Block 5 — method: RNA Bind-n-Seq; form: RNA; matrix: in vitro; concentration: 365 nM; relative to: no-protein control; reading: higher = stronger binding
Target: RNA binding protein fox-1 homolog 2, RRM domain, GST-SBP tag (RBFOX2, Homo sapiens, UniProt O43251-10, residues 100-194)
Setting: natural RNA segment, single round, ends assumed
Shared flanks, not repeated: GGGAGUUCUACAGUCCGACGAUC … UGGAAUUCUCGGGUGCCAA
Residues (chain): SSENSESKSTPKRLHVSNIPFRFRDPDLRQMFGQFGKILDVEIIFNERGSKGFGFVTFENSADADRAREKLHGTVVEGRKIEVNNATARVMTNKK
Strand	RBNS enrichment (R)
AAUGUUCAUUUUCCUACCUAAACAGGGUGGUUCAACAUAAAGGCUGAUGUUGUGUCCGUUUUGUAUUUUAUCUUUUGUUAAAGAUACAUAAAUGACAAUACUUAACUGUG	0.334
UGGCCUGCAACUGGAGACUGCUAAGCCCUGACGUCUGGUGCCGAGGUCGUCUGCAGGGUUUUGCCCUUGGUUUACUGAGGGGGGCUGAGCUGCUGCUGGUCCCCCCUUCU	1.74
GGUGGGAAUGGGAUGGGGUGGACCUUCUCUUGCUUGGUGCUCCGCUAUUUGGAACAGUUCUUACACAUUUGCUGGGCCUGGCCUCUGAGAGGCCAUCUUCCACCCCCAGA	0.785
AGAGACAUAUCGAGGUAGUUACAUAAAAUUAUUUUGUUUGGCAUUAUUUUUCUCACUCGAAGAAACUAUAUAGGGUUGUUUUUCCUUUAGCUUGUGCUCAAGUCCUCUUG	0.599
AGCGGCCACCAACUGACCUGGGGCGCUGCUCCCCACAGUCCAAAUAAGCUGAAAGUGCAGCUCGCUGCAGGCCCCAGAGCGAGCUUCCCCUCCUCCCUGCUCUCCCAGGC	0.478
UGAAGCCCGUGCUCCCUGGAAGCCCUCACCUUCCACAGACAACAGAGAUUUCCUGCUAGAGGAAAGGGGGAAUCUCUGUGCAUCCCAGCGCUGCCUGGAAACUUACCUUC	1.32
UCUCCUCUCCUCCUUGUCUGGCUCUGUUGACAAACCGGGCAUGUUUGGCAGUAAAUUGGCACCGUGUCACACUGUUUCCUGGGAUUCAAGUAUGCAACCAGAACACAGGA	1.42
ACUGUAGAAGCCAUUUUGAAGGAUUUGGCUUUUUAUUGUUUGUGGCAUUAAUAAGGGAGCUUACCAUUCUGGUGGGAUGUGCAUGAGGCGUUCACAGCCCCCAUACAUGG	3.05
AGUGGGGGUGCUGUACUCACUGGCUUUGUGACCUGGCCUGGGGGGGGUUCCAGGUAAGAGAAACAGAGACCCCUACCCCAGCUGUUUACUACCUGGUGGGCUGGUUGAGG	1.09
UAUAUUAUGGAGAAAGCAAAACCCUGCAAAUGACCAAAUGGUGUCCAAAGAGCAGCAUGACAUUGGCAUCAGCUGAAUAACCAGGGGCACAUGGGGGAACGUGGAUGGGA	14.1
AUAGGAAUAGCGUAGGAAUAGAAAUUUGCCCAAGACUUUGAUAGUCAUCUGGUUUCAGUUCAGCAAGGGUACUUGAAUCAAUAUGGUAGCCCCAUCUGGACCAUCCACCC	0.425
AGUAAGCAGACUUAGGAGAAUAUUUGUUUUAAAAUUCAUGUAACAGAUUUCCCUUUGAAGAAACACUUCUGACAUGGGUAAUUUCUCAAUCAGGGGUCACUUUUAUGAAC	0.436

Block 6 — method: RNA Bind-n-Seq; form: RNA; matrix: in vitro; concentration: not given; relative to: input RNA pool; reading: higher = stronger binding
Target: RING finger protein unkempt homolog, zinc fingers 1-6, GST-SBP tag (UNK, Homo sapiens, UniProt Q9C0B0, residues 30-357)
Setting: RNA with constant flanks, human-mouse chimeric sites, ends assumed
Shared flanks, not repeated: GGGAGUUCUACAGUCCGACGAUC … CAACAGAGGAUUGAGCAUCA
Construct (chain): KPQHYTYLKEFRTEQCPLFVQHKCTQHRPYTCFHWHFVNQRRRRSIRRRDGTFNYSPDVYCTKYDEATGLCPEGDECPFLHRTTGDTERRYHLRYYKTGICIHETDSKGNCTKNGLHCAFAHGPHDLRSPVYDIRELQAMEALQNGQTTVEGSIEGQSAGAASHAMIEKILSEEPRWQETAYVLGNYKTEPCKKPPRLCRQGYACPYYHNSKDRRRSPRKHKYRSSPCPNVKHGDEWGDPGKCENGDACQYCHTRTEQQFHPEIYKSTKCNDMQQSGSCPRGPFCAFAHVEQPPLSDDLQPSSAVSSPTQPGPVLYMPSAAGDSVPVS
Strand	bound/input enrichment
UCUGGUCACACUCGUGUAUAUGGUGUGUGCUUUGUGGACACUUCACUGGGAAAGUUUUUCAUCGGCCAGUUUUCGGAUGACCGCCACUGUUCCAGAUUUAGGACGCUAGUGGCUCACUAU	0.234 ratio
CUUAAUGUUAAUAUUUUUGAAUAAAUGUAAAACCAUGGUCUGCUUUUGGUACAACACGCAUUAAUAAAAGGUUAAGUUUUGUUUUCCCUCCACUGAAUAUUUAACAUCUCAGAAAAAAAC	0.285 ratio
AGUGUGCAGGAAUUCAUGACCUUCACGAGUCAACUGAUUGUGGAACGCUCGGGGAAAGGCAGCAGAGCUUCUGUCAAAGAACAAGACUAUCUUUGCCAUGUCUACGUCCGGAGCGACAGU	0.104 ratio
AAAUCGUGUGUGUCCAAUAUUGAAAGUGCUUUAUCUACACUCCAGUAUGUAAGCAGCAUAGUAGUUUCUUUAGAGAAUAGGUCAGCCAUUGUAAAGUAUAAUGCAAGCUUAGUCACUCCA	10.4 ratio
GUUGCCAGCUUCCGGUUCCGUUGGGCUCGGUUCUCUCCUGAGCUACGUGUCUCUACGCUCUCAAUCCCGGUUGGGUAGGCAGUCAUGCAGGUAAUGCAGUUUGUGGAGCCCAGCCGGCAG	0.0837 ratio
UGUGAACUGUCUCUUGAUUGGGGUCUACAAGAUGACUUUUCCUGGCACAUAUUCCAAAGCAAAGACUUUGUUACCUGCUGCUUAUUGUCUAAUUUACAGGGAUAUUUAAUUUUGUCAGGU	0.3 ratio
GGAAGUACAAUGAUGGAGAUUGAUGGUGACAAAGGCAAGCAGGGCGGGCCCACCUACUACAUAGACACCAAUGCCCUCCGCGUGCCCAGGGAGAAUAUGGAGGCCAUUUCACCUCUAAAG	0.219 ratio
GGCUGCUGGUGACUGUCCUGGAGUGGCUGGAGUUCCCCCGGAACCUGGGCCAGACUAAUUUUAGAAAAUGCCAAGUAGGAAAUUUGCUGAGGGUGAAGUGGUCAGAGGCCGAUGGCCUGG	3.62 ratio
GUAAUGGACGUCAACACUGCUCUACAAGAGGUGCUGAAGACUGCCCUCAUCCACGAUGGCCUAGCACGUGGCAUACGCGAAGCUGCCAAAGCCUUAGACAAGCGCCAAGCCCAUCUUUGU	0.0909 ratio
GCAGGAUCUUCUAAGUACCAGUGGGACAUUAUGAAAUCCCUUGGCCUGUCUGAUGAAGACAUAGUGAAGUUUUCUGAAGCAGAGCACUGGCUUGAUUAUUUCCCACCACUGGCCGUUCAG	0.147 ratio
UCUGGUCACACUCGUGUGUAUGGUGUUUGCUUUGUGGACACUUCACUGGGCAAGUUUUUCAUAGGUCAGUUUUCGGAUGAUCGCCAUUGUUCCAGAUUUAGGACGCUAGUGGCUCACUAU	0.35 ratio

Excerpt of the above (block 2):
Strand	E-score
ATGCGGGC	0.277
GGGCACAC	0.285
ACGTGAGC	0.363
ATGCTGGC	0.295
CGTGTACA	0.323
CCATGCTC	0.403
GATCACGC	0.411
CGTGGCAG	0.374
AACATGCC	0.34
ACGCGCGT	0.369
GCATGTTA	0.401
AACGTGGC	0.432
GCGCACCC	0.254
ACGTTAGG	0.291
GCACACCA	0.252
ACGTTCTA	0.25
AAGCGTGT	0.384
CGTGCTTC	0.389
